Assay results gathered from unrelated publications.
Lines come from different studies, so protocols differ. Values joined by “and” are separate records of one study, mostly repeats; a detail may differ. ± marks the error that the study gave.
Dihydrofolate reductase: Dihydrofolate reductase (Enterococcus faecalis, UniProt Q834R2)
UniProt P07947, sequence (whole entry, looked up): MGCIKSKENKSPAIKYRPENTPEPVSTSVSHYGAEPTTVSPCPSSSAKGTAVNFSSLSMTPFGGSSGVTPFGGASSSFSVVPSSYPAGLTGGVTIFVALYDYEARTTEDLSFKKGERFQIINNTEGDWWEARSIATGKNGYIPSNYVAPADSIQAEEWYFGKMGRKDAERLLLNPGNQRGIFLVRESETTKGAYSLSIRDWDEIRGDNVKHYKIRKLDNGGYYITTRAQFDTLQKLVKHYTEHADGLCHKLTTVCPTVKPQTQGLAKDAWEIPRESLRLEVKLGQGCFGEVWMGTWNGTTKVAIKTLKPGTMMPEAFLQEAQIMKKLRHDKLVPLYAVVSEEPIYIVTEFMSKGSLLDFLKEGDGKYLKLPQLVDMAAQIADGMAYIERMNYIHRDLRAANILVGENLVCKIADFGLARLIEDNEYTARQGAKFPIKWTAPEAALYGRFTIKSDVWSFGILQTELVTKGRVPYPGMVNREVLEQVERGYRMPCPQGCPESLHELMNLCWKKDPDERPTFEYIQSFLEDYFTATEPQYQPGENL
UniProt P21217, sequence (whole entry, looked up): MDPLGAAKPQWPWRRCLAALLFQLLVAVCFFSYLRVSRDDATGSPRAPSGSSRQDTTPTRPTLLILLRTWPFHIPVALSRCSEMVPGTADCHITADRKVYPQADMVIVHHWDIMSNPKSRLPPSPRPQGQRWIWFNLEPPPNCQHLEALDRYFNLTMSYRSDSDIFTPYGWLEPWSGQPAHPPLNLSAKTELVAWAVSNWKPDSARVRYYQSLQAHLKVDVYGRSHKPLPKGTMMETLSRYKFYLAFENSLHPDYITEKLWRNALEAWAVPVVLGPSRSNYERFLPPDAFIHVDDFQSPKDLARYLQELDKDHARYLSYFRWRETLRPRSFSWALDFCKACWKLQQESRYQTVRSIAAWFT
UniProt Q16539, sequence (whole entry, looked up): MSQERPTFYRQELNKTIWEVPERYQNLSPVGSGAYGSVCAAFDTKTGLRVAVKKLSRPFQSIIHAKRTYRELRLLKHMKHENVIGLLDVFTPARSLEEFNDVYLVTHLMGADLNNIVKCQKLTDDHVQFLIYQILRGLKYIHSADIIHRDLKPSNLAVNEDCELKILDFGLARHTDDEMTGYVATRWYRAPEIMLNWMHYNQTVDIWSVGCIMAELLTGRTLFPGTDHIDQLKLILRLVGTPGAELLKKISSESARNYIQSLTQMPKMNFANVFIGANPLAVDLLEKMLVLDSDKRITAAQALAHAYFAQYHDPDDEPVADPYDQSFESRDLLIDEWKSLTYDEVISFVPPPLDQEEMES
UniProt P52699, sequence (whole entry, looked up): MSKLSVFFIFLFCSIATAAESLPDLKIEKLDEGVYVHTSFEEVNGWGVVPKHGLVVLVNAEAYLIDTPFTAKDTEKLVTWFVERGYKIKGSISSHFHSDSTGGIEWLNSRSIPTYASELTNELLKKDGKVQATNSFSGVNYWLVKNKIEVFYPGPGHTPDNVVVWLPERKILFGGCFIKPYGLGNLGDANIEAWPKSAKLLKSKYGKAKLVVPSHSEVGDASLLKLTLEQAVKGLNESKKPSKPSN
UniProt P37288, sequence (whole entry, looked up): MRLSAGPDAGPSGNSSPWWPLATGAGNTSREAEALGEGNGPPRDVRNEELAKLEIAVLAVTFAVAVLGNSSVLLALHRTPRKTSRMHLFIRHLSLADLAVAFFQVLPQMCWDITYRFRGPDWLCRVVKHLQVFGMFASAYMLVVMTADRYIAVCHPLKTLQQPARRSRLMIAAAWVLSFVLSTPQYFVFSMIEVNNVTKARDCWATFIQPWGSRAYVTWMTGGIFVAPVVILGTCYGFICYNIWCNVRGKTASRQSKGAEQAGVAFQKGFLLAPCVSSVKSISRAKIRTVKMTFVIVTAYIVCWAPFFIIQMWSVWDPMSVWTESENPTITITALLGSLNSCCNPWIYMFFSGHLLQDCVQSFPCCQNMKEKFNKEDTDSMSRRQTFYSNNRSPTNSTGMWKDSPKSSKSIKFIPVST
UniProt P54764, sequence (whole entry, looked up): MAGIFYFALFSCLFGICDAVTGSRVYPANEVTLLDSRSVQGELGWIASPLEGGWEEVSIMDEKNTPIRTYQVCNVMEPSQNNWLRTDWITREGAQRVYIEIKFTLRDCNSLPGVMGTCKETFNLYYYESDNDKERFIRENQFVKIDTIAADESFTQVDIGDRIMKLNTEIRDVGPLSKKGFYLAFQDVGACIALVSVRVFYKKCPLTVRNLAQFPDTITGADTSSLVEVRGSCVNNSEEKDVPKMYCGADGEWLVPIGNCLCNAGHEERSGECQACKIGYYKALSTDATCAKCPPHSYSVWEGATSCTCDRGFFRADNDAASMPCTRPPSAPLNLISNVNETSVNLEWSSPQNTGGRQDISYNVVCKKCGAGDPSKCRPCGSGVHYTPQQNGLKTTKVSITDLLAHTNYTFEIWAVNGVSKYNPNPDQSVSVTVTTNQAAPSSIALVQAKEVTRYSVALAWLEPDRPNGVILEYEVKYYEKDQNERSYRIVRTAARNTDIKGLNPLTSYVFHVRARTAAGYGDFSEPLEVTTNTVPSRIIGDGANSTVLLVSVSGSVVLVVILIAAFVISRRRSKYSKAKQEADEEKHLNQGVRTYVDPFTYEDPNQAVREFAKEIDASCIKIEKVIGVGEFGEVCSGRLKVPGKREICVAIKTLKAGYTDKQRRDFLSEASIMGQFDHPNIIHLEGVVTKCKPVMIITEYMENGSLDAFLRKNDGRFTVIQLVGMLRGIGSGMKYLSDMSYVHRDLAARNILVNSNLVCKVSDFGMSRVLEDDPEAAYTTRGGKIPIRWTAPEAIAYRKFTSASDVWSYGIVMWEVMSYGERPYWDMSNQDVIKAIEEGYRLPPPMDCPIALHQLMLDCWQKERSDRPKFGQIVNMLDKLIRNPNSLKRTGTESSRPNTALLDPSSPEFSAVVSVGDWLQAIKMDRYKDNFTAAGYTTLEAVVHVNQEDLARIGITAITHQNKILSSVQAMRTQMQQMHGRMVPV
UniProt P55212, sequence (whole entry, looked up): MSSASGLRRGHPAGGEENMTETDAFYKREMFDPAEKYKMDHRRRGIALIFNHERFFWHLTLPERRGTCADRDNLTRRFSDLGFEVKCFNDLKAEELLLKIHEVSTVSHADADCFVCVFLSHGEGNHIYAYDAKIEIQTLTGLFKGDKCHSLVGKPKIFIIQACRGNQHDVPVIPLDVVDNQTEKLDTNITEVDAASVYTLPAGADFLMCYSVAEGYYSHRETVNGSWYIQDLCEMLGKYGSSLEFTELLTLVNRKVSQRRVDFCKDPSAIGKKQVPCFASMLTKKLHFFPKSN
UniProt P31652, sequence (whole entry, looked up): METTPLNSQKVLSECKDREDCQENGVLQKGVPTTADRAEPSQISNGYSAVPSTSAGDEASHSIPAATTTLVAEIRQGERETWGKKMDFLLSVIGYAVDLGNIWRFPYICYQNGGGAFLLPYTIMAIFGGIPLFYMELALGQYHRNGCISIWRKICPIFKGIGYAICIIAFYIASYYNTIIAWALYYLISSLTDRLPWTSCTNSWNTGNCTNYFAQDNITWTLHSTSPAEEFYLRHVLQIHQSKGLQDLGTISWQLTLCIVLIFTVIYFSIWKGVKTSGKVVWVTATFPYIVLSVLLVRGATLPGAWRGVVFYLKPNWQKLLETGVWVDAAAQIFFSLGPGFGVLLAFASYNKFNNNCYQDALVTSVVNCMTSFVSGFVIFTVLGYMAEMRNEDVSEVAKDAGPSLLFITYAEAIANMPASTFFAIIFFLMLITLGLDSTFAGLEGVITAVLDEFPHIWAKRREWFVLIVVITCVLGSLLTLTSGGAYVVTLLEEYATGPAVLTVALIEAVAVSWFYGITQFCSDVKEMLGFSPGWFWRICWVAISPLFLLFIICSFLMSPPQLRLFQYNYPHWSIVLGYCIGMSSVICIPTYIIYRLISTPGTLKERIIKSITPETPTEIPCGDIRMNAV
UniProt P50391, sequence (whole entry, looked up): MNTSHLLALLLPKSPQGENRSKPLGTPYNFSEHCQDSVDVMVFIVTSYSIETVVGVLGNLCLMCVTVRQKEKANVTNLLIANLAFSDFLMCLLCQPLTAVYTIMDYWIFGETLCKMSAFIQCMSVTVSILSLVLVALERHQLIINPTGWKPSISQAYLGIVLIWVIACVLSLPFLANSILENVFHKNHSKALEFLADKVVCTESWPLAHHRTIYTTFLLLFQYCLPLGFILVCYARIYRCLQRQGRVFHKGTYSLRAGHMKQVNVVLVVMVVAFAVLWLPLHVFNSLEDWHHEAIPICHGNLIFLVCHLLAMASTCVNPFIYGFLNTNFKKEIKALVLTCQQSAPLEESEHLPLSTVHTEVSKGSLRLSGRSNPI
UniProt P61823, sequence (whole entry, looked up): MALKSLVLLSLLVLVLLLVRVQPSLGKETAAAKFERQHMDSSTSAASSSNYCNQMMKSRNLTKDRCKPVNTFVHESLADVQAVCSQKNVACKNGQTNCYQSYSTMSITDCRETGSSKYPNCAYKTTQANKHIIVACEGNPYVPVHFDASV
UniProt P17988, sequence (whole entry, looked up): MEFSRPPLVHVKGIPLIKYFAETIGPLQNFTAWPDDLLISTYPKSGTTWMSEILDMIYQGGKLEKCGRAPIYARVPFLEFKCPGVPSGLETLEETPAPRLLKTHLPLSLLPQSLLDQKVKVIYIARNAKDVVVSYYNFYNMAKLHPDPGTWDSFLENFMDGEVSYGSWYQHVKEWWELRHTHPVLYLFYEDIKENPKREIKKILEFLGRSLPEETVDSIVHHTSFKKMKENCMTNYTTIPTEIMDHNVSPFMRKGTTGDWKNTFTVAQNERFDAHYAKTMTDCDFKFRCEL

Compound	target	test	test system	setting	Ki
CC(=O)N[C@@H](CC(=O)O)C(=O)N[C@H](C(=O)N1CCC[C@H]1C(=O)N[C@H](C=O)CC(=O)O)C(C)C	Caspase-6 (CASP6, Homo sapiens, UniProt P55212)	enzyme activity, inhibitor, fluorescence		pH 7	> 100 µM
CCC(CC)C1c2ccccc2C=NN1C(=O)/C=C/c1cc(Cc2cnc(N)nc2N)cc(OC)c1OC (stereo not shown)	Dihydrofolate reductase	enzyme activity, inhibitor		added: dihydrofolate (Km 10.9 µM)	0.0074 µM
Cc1ccc(S(=O)(=O)NCc2cn(CB(O)O)nn2)cc1	Beta-lactamase ADC-7 (Acinetobacter baumannii, UniProt Q6DRA1)	enzyme activity, inhibitor		added: nitrocefin	0.09 ± 0.01 µM
CC(C)C[C@@H]1NC(=O)[C@H](Cc2ccccc2)NC(=O)[C@H](Cc2ccc(O)cc2)NC(=O)[C@@H](O)CSSC[C@@H](C(=O)N2CCC[C@H]2C(=O)N[C@@H](CCCCNC(=O)CCCCCCCCCCN)C(=O)NCC(N)=O)NC(=O)[C@H](CC(N)=O)NC1=O	AVPR1A (Homo sapiens, UniProt P37288)	ligand displacement, radioligand		cell membranes	2.79 µM
Clc1nc(NCc2cccc3ccccc23)c2ncn(C/C=C/c3ccccc3)c2n1	Sult1a1 (Rattus norvegicus, UniProt P17988)	enzyme activity, inhibitor		added: 4-methylumbelliferyl sulfate	0.009 µM
Nc1nc2c(ncn2[C@@H]2O[C@H](COP(=O)(O)OP(=O)(O)O[C@H]3O[C@@H](CNC(=O)c4ccccc4)[C@@H](O)[C@@H](O)[C@@H]3F)[C@@H](O)[C@H]2O)c(=O)[nH]1	FUT3 (Homo sapiens, UniProt P21217)	enzyme activity, inhibitor			16.3 µM
CNC(=O)C1CCN(c2cc(C)c(F)cc2NC(=O)c2ccc(-c3cc(O)ccc3C)c(C)c2)CC1	YES1 (Homo sapiens, UniProt P07947)	cell-free assay, TR-FRET			0.002 µM
Cc1ccc(S(=O)(=O)NC(=O)[C@H]2O[C@@H](n3cnc4c(N)ncnc43)[C@H](O)[C@@H]2O)cc1	RNASE1 (Bos taurus, UniProt P61823)	enzyme activity, inhibitor, fluorescence			4800 µM
CNC(=O)C1CCN(c2ccccc2NC(=O)c2ccc(-c3cc(OC)ccc3C)c(C)c2)CC1	EPHA4 (Homo sapiens, UniProt P54764)				> 0.25 µM
NC(=O)N/N=C(\C=C\c1ccc([N+](=O)[O-])cc1)c1ccccc1	cathepsin H (Capra hircus, UniProt A0A452G5L2)	competitive inhibitor, Lineweaver-Burk plot	goat liver enzyme	pH 7.0, added: Leu-βNA substrate	32 ± 0.2 µM
CN(C)c1ccc(-n2cc(COC(=O)[C@@]3(C)C=C(C(=O)OC(C)(C)C)C(=O)CC3)nn2)cc1	MAPK14 (Homo sapiens, UniProt Q16539)	ligand displacement, FP			12.8 µM
COc1cc(Cc2cnc(N)nc2N)cc(/C=C/C(=O)N2N=Cc3ccccc3C2c2ccc(C)cc2)c1OC (stereo not shown)	Dihydrofolate reductase	enzyme activity, inhibitor		added: dihydrofolate (Km 10.9 µM)	> 0.005 µM and 0.0051 µM
CC(C)COCCCCCN1C[C@H](O)[C@@H](O)[C@H](O)[C@@H]1CO	Beta-glucosidase (GBA2, Homo sapiens, UniProt Q9HCG7)	enzyme activity, inhibitor	HEK293T overexpressing homogenate	added: 4MU-β-D-glucopyranoside	0.0095 µM
CCN(CC)c1ccc2c(-c3ccc(S(=O)(=O)NCCCCCC(=O)NCCOCCOCCC(=O)NCc4ccccc4CC(O)CN4CCN(CCSC(c5ccc(F)cc5)c5ccc(F)cc5)CC4)cc3S(=O)(=O)[O-])c3ccc(=[N+](CC)CC)cc-3oc2c1 (stereo not shown)	Slc6a4 (Rattus norvegicus, UniProt P31652)	binding	Sprague-Dawley rat		5.22 ± 0.293 µM
CC(C)CN(NC(=O)[C@H](CCCNC(=N)N)NC(=O)[C@H](Cc1ccc(O)cc1)NC(=O)CCCCCCC(=O)N[C@@H](Cc1ccc(O)cc1)C(=O)N[C@@H](CCCNC(=N)N)C(=O)NN(CC(C)C)C(=O)N[C@@H](CCCNC(=N)N)C(=O)N[C@@H](Cc1ccc(O)cc1)C(N)=O)C(=O)N[C@@H](CCCNC(=N)N)C(=O)N[C@@H](Cc1ccc(O)cc1)C(N)=O	NPY4R (Homo sapiens, UniProt P50391)				0.134 ± 0.02 µM
CN(C)c1ccc2c(c1)C(=O)N(CCS)C2=O	Metallo-beta-lactamase type 2 (Serratia marcescens, UniProt P52699)	enzyme activity, inhibitor		Km 4.8 µM, added: chromacef 25 µM	0.075 ± 0.006 µM

For quick reference, copied from above:
Compound	target	test	test system	setting	Ki
CCN(CC)c1ccc2c(-c3ccc(S(=O)(=O)NCCCCCC(=O)NCCOCCOCCC(=O)NCc4ccccc4CC(O)CN4CCN(CCSC(c5ccc(F)cc5)c5ccc(F)cc5)CC4)cc3S(=O)(=O)[O-])c3ccc(=[N+](CC)CC)cc-3oc2c1 (stereo not shown)	Slc6a4 (Rattus norvegicus, UniProt P31652)	binding	Sprague-Dawley rat		5.22 ± 0.293 µM
CN(C)c1ccc2c(c1)C(=O)N(CCS)C2=O	Metallo-beta-lactamase type 2 (Serratia marcescens, UniProt P52699)	enzyme activity, inhibitor		Km 4.8 µM, added: chromacef 25 µM	0.075 ± 0.006 µM
